Results gathered from unrelated publications.
Lines come from different studies, so protocols differ. “And” joins repeats or separate records; there may be more than shown. Numbers after ± are the reported error.
UniProt O60674, sequence (whole entry, looked up): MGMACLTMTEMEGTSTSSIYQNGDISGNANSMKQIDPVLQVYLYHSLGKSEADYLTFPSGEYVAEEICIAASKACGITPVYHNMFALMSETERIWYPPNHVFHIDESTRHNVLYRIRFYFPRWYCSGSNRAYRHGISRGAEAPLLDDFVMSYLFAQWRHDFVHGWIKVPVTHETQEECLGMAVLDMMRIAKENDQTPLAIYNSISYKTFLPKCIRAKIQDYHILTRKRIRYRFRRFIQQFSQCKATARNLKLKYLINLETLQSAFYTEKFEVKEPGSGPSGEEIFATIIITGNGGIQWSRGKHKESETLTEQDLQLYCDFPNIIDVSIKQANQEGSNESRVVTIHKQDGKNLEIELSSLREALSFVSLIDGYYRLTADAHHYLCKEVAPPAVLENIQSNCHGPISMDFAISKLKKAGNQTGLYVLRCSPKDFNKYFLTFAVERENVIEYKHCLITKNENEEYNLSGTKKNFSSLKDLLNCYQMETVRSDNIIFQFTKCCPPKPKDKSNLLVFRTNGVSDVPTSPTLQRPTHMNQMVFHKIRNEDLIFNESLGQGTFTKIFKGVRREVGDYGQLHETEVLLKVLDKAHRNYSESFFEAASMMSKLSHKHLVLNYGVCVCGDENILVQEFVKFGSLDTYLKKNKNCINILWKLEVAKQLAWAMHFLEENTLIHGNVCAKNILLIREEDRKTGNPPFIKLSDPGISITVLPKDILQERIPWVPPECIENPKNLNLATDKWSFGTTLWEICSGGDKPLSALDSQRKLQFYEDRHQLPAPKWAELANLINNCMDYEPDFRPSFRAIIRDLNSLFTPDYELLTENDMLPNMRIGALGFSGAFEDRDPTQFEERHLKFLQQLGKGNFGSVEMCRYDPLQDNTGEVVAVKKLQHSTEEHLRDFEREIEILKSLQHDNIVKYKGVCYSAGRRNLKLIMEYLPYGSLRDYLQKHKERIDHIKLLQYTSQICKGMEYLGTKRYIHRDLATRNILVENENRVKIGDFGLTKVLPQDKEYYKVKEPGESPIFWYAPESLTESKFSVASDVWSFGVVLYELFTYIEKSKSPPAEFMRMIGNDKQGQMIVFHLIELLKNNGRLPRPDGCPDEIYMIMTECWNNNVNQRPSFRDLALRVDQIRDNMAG

Cn1cncc1-c1c(F)cncc1NC(=O)c1c(N)nn2cc(F)cnc12 — grade ≥3 creatinine increased (human patients; oral, up to 40 mg once daily): 0%
CO[C@H]1C[C@@H]2CC[C@@H](C)[C@@](O)(O2)C(=O)C(=O)N2CCCC[C@H]2C(=O)O[C@H]([C@H](C)C[C@@H]2CC[C@@H](OC(=O)NCCOCCOCCOCCOCCOCCOCCOCCOCCC(=O)N3CCc4cc(Cn5nc(-c6ccc7oc(N)nc7c6)c6c(N)ncnc65)ccc4C3)[C@H](OC)C2)C[C@@H](O)[C@H](C)/C=C(\C)[C@@H](O)[C@@H](OC)C(=O)[C@H](C)C[C@H](C)/C=C/C=C/C=C/1C — TRAE incidence (phase 1 dose escalation, measured: nausea; advanced solid tumour patients; intravenous, 6 mg weekly, any grade): 50%
C[C@@H]1OC(=O)NN=C1c1ccc(-c2ccc(F)cc2)c(C(F)(F)F)c1 — patients with adverse event (phase I trial, measured: Ascites all grades; human patients; 5 mg loading then 0.25 mg daily): 0%
CC(C)(O)c1cc(Nc2cc(Oc3cn(C4CC4)nc3C3CCOCC3)ccn2)ccn1 — treatment-emergent adverse events (Pyrexia; advanced cancer patients, grade 4 glioma expansion; oral, 50 mg twice daily, all causality any grade): 5%
COc1cc2c(Oc3ccc4[nH]c(C)cc4c3F)ccnc2cc1OCC1(N)CC1 — Tinnitus incidence (paediatric refractory sarcoma patients; 10 mg): 0%
CCN1CC2(CCN(CCc3cc(F)ccc3F)CC2)O[C@H](C)C1=O — tmax (ferret, plasma; intraperitoneal, 0.5 mg/kg): 18 min
CC(C)[C@@H]1CC[C@@H](C)C[C@@H]1O — lactate dehydrogenase (acute oral toxicity OECD; Swiss albino mice, serum; oral, 1000 mg/kg): 81 ± 7.13 mg/dL
COc1ccc(Nc2cc(C(=O)NCCCN3CCN(c4ccccc4F)CC3)c3ccccc3n2)c(OC)c1 — maximum response (Vero-E6; CellTiter-Glo ATP; 72 h, second round 5-point; reference: DMSO 0%, hyamine -100%, more negative, more toxic): -29.6%
O=C1Nc2cc3[nH]nc(-c4ccncc4)c3cc2CN1Cc1ccccc1 — patients with TEAE (measured: Fatigue; patients with advanced solid tumours; intravenous, dose not given, all schedules): 35%
COc1ccc(C[C@@H]2NC(=O)[C@H]([C@@H](C)O)NC(=O)[C@@H]3[C@@H]4CCN3C(=O)[C@@H]3Cc5cn(c6ccc(F)cc56)CCCCCCN(Cc5ccc(cc5)CCNC(=O)[C@]5(C)CCCN5C2=O)C(=O)CCC(=O)N[C@@H](C)C(=O)N[C@H](CNC(=O)CCCCC[N+](C)(C)C)C(=O)N[C@@H](Cc2cccc(c2)CNC(=O)CO4)C(=O)N3)cc1 — participants with adverse event (measured: Somnolence; humans; concentration not given, Study-003): 0%
CC(=O)c1c(C)c2cnc(Nc3ccc(C4CCN(CCS(C)(=O)=O)CC4)cn3)nc2n(C2CCCC2)c1=O — MRT (human, plasma; oral, 75 mg twice daily, day 1, single dose, added: letrozole): 301 min
CC(C)[C@@H]1NC(=O)CNC(=O)[C@H](CC(N)=O)NC(=O)[C@H](CCCNC(=N)N)NC(=O)[C@H](Cc2ccc(O)cc2)NC(=O)[C@H](C(C)C)NC(=O)[C@@H](NC(=O)[C@@H](NC(=O)[C@H](CC(N)=O)NC(=O)[C@H](Cc2c[nH]c3ccccc23)NC(=O)[C@H](C)NC(=O)[C@H](Cc2ccccc2)NC(=O)CN)C(C)C)CSSC[C@@H](C(=O)N[C@@H](Cc2cnc[nH]2)C(=O)N[C@@H](CCCNC(=N)N)C(=O)N[C@@H](CCCNC(=N)N)C(=O)N[C@@H](C)C(=O)N[C@@H](CC(N)=O)C(N)=O)NC(=O)[C@H](C(C)C)NC(=O)[C@H](CCCNC(=N)N)NC1=O — calcium (ICR mouse, blood; intramammary, 5 mg/kg, day 5, 3 d dosing): 1.37 ± 0.02 mmol/L
CCCCCCCCCCCCCCCC(=O)N[C@@H](CCC(=O)NCCCC[C@H](NC(=O)[C@H](CC(=O)O)NC(=O)[C@H](CO)NC(=O)[C@@H](NC(=O)[C@H](Cc1ccccc1)NC(=O)[C@@H](NC(=O)CNC(=O)[C@H](CCC(N)=O)NC(=O)[C@H](CO)NC(=O)[C@@H](N)Cc1c[nH]cn1)[C@@H](C)O)[C@@H](C)O)C(=O)N[C@@H](CO)C(=O)N[C@@H](CCC(=O)O)C(=O)N[C@@H](Cc1ccc(O)cc1)C(=O)N[C@@H](CC(C)C)C(=O)N[C@@H](CC(=O)O)C(=O)N[C@@H](CO)C(=O)N[C@@H](CCC(=O)O)C(=O)N[C@@H](CCCNC(=N)N)C(=O)N[C@@H](C)C(=O)N[C@@H](CCCNC(=N)N)C(=O)N[C@@H](CC(=O)O)C(=O)N[C@@H](Cc1ccccc1)C(=O)N[C@H](C(=O)N[C@@H](C)C(=O)N[C@@H](Cc1c[nH]c2ccccc12)C(=O)N[C@@H](CC(C)C)C(=O)N[C@@H](CCC(=O)O)C(=O)N[C@@H](C)C(=O)NCC(=O)NCC(=O)O)C(C)C)C(=O)O — atrial fibrillation (human, CrCl < 20 mL/min; sc, 100 µg single dose): 0%
O=S(=O)(Nc1ccccc1)c1ccc(NC(=S)Nc2ccccc2)cc1 — serum enzyme activity (measured: ALKP; male mouse, blood; oral, 5 mg/kg daily, 14 days): 112 U/L
CC1CCCCN1CCCNC(=O)c1cc(Sc2ccc(Cl)cc2)nc2ccccc12 (centres unmarked) — maximum response (Vero-E6; CellTiter-Glo ATP; 72 h, first round 5-point; reference: DMSO 0%, hyamine -100%, more negative, more toxic): -1.68%
CCC[C@@](N)(CO)CCc1ccc(OCCCCCC(C)C)cc1 — clearance (hound dogs, male; intravenous, 1.0 mg/kg, geometric mean): 10.8 mL/min/kg
CCc1ccc(CC/C=C/c2ccc3c(c2)C(=O)CC3)cc1 — CK serum activity (Sprague-Dawley rat, male; oral, 30 mg/kg/day, 14 days): 460 U/L
COC[C@@H](CC(C)C)NC(=O)c1ccc(C)c(C)c1 — micronucleated PCE per 1000 PCE (Hsd:ICR (CD-1) mouse, male, bone marrow; oral, 500 mg/kg, 24 h): 0.2
CC(C)N(CCc1c[nH]c2cccc(OC(=O)CCCC(=O)O)c12)C(C)C.Cl — clearance (male beagle dog, plasma; intravenous, 1 mg/kg): 390 mL/min
C[C@]1(CO)Cc2ncn(-c3ccc(C#N)c(Cl)c3)c2C(=O)O1 — subjects with drug-related headache (human, Chinese; 3 mg single dose): 16.7%
Clc1nc[n]([Au][PH](c2ccccc2)(c2ccccc2)c2ccccc2)c1Cl — body weight (NCG mice; intraperitoneal, 5 mg/kg single dose, 24 h): 22.2 g and 23.1 g
C[C@@H]1N=C(c2ccccc2F)c2cc(Br)ccc2-n2cnc(C(=O)O)c21 — Tmax (Swiss Webster mice, blood; oral gavage, 100 mg/kg): 20 min
Cn1cc(-c2nc(N[C@@H]3CCCC[C@@H]3N)c(F)c3c2C(=O)NC3)cn1 — hemorrhagic adverse events (measured: Hematochezia; patients with relapsed or refractory AML; oral, dose not given, all doses): 7%
CCN1[C@@H](C(=O)NC23CCC(C(=O)O)(CC2)CC3)[C@H](c2cccc(Cl)c2F)[C@]2(C(=O)Nc3cc(Cl)ccc32)C12CCCCC2 — Ageusia incidence (patients with advanced solid tumours; oral, 150 mg): 12.5%
Cc1cccc(Cn2nc(C3CC3)c3c(NC(=O)c4cnc5cc(OCCN6CCN(C)CC6)ccn45)cccc32)n1 — all-cause adverse events (CTCAE v4.03, measured: ALT increased; platinum-resistant ovarian cancer patients; oral, dose not given, added: pembrolizumab IV every 3 weeks): 36.4%
C[C@]1(O)C[C@@](N)(c2ccc(-c3nc4n(c3-c3ccccc3)COc3ccncc3-4)cc2)C1 — patients with Diarrhea TEAE (human, advanced or metastatic solid tumours; 16 mg once daily, dose-response cohort): 0%
[O-][S+]1CCc2nc(N3CCC(c4ncc(Cl)cn4)CC3)nc(NC3(CO)CCC3)c21 (centres unmarked) — Pharyngitis adverse events (idiopathic pulmonary fibrosis patients; 18 mg twice daily): 0%
C[C@H]1CN(c2n[nH]c3nc(N[C@H]4CC[C@H](NS(=O)(=O)CCC(F)(F)F)CC4)ncc23)CCO1 — relative abundance (Tyrosine-protein kinase JAK2 (JAK2, Homo sapiens, UniProt O60674); inhibitor, Kinobeads competition profiling; 20 µM; reference: vehicle): 1.14
COc1ccc(-c2c(-c3ccc(C#N)c(F)c3)nc(N3CCC(N)CC3)n(C)c2=O)cc1F — serious adverse event incidence (measured: Cystitis; human patients; oral, 60 mg, dose expansion): 0%

Some of these lines once more:
CC(C)N(CCc1c[nH]c2cccc(OC(=O)CCCC(=O)O)c12)C(C)C.Cl — clearance (male beagle dog, plasma; intravenous, 1 mg/kg): 390 mL/min
C[C@]1(CO)Cc2ncn(-c3ccc(C#N)c(Cl)c3)c2C(=O)O1 — subjects with drug-related headache (human, Chinese; 3 mg single dose): 16.7%
